Results of several laboratories.
Parts stem from different laboratories: compare values within a part only.

Block 1 — technique: RNA Bind-n-Seq; form: RNA; sample: in vitro; tested at: not given; baseline: input RNA pool; direction: higher = stronger binding
Target: RING finger protein unkempt homolog, zinc fingers 1-6, GST-SBP tag (UNK, Homo sapiens, UniProt Q9C0B0, residues 30-357)
Setting: RNA with constant flanks, human and mouse sites, ends assumed
All sequences stand within: GGGAGUUCUACAGUCCGACGAUC … CAACAGAGGAUUGAGCAUCA
Target sequence (chain): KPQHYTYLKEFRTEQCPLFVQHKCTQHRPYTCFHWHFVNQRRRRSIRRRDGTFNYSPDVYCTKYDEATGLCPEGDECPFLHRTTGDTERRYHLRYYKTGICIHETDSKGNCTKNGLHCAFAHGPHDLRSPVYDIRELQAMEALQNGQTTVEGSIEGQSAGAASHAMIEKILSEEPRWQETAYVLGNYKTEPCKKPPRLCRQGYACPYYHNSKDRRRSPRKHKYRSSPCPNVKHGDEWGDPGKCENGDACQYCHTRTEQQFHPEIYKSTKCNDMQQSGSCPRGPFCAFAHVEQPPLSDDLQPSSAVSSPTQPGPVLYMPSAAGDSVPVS
For `GUCAACAGCUGCCUCAACCCCAUCCUCUACGCCUUCCUGGAUGAGAACUUCAAGGCCUGCUUCCGCAAGUUCUGCUGUGCAUCUGCCCUGCGCCGGGACGUGCAGGUGUCUGACCGCGUG`, the bound/input enrichment was 0.275 ratio.
`CAUAAUCACAAGUUUGAAAUAUCCUAUUUCUUAAAUAAAAAGGAGAACGUUAAUUACAUUUAGCAGACAUUUUUACAUUCAAAACUGGAUAUUGAAAUACGUGGAACAAUUGCUUUAAAU` gave a bound/input enrichment of 0.211 ratio.
`UCCUGUCUCGAUUUACUCGAAAUGAGUUUAAUCUGGAAAGCAAGAGCACCAUUGGAGUAGAGUUUGCAACAAGAAGCAUCCAGGUUGAUGGAAAAACAAUAAAGGCACAGAUAUGGGACA` has a bound/input enrichment of 0.512 ratio.
With `CACUUGAUGCCCCCACGAAUCCUAGUGGAAUGUUUACUCCCCAAUGGAAUGAUAGUGACUUUAGAAUGCCUCCGUGAGGCCACACUCGUCACCAUCAAACAUGAACUGUUCAGAGAGGCC` the bound/input enrichment was 0.217 ratio.
`GGACAGGGAUUUUUGUAAGUCUAUAUUUGAAAGUCCCUCCCUAUGGUGAUACUGUGUUCAUGUUGUUUAUGUAGUGUUGUGUGAAAUAUCCAUUUUGGAUUGUGUUACUUUUUAAGAUAU` has a bound/input enrichment of 0.475 ratio.
For `AUGAAGGAGGCGUUUGGCUUUAUCGAAAGAGGUGAUGUUGUAAAAGAGAUAUUCUUUCACUAUAGUGAAUUUAAAGGUGACCUAGAAACCCUACAGCCUGGAGAUGACGUGGAAUUCACA`, the bound/input enrichment was 0.407 ratio.
With `UUUGCUUUCCUAGUCGCUCAUUGCUUCCUGUCCAUUUACGAAAUGGUAGUGGAUGUAUUGUUCUUGUGUUUUGCCAUUGAUACAAAAUACAAUGAUGGGAGCCCUGGCCGAGAAUUCUAU` the bound/input enrichment was 0.166 ratio.
`UGGUGGAUUGGAAUUAAGUGGGUUGCAGGAGGACAAGCAUUUUUUGGAGCCCAGUUGAAUUCCUUUAUCCAUGUGAUUAUGUACUCAUACUAUGGGUUAACUGCAUUUGGCCCAUGGAUU` gave a bound/input enrichment of 0.127 ratio.
The bound/input enrichment of `GUAGCUAAGUUUCUUGAUGCUUCUGGAGCAAAACUUGAUUACCGUCGAUAUGCAGAAACACUCUUUGACAUUCUGGUGGCUGGUGGAAUGCUGGCCCCAGGUGGUACACUGGCAGAUGAC` is reported as 0.266 ratio.
For `CCAGAAUAUGUUUUGGCUUAUAUUGACUAUCUCUCUCACCUCAAUGAGGACAAUAAUACUCGAGUUUUGUUUGAAAGAGUUCUAACGUCUGGAAGCCUUCCUCCUGAGAAGUCUGGAGAA`, the bound/input enrichment was 0.185 ratio.
With `ACAAAACGCGUUCUCCCGGGGAAGUACUUGGAAGAGAUCGCCACACAGAUGCGCACGCACAGCAUCAACGCGCUGCUGAUCAUCGGUGGAUUCGAGGCCUACCUGGGACUCCUGGAGCUG` the bound/input enrichment was 0.0624 ratio.

Block 2 — technique: RNA Bind-n-Seq; form: RNA; sample: in vitro; tested at: 365 nM; baseline: no-protein control; direction: higher = stronger binding
Target: RNA binding protein fox-1 homolog 2, RRM domain, GST-SBP tag (RBFOX2, Homo sapiens, UniProt O43251-10, residues 100-194)
Setting: natural RNA segment, single round, ends assumed
All sequences stand within: GGGAGUUCUACAGUCCGACGAUC … UGGAAUUCUCGGGUGCCAA
Residues (chain): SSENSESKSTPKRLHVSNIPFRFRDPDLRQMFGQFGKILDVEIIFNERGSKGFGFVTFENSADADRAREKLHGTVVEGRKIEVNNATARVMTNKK
Under “RBNS enrichment (R)”, `CUUCCAGAUUGCUGGUUCCAGAAGAUGUAAUUUGCCACUGUGUGCUGCACGGCUAGGGAGUGUCAUCUCAGCUGAAGGCCUCACCCAAGACAGGCAGACAGACAUGAACA` is recorded as 0.311.
For `GCAAACACACUGAUGUAGGAAGCACGAGGAAAGGAAGACGUUUUGAUAUAGUGUUACUGUGAGCCUGUCAGUAGUGGGUACCAAUCUUUUGUGACAUAUUGUCAUGCUGA`, “RBNS enrichment (R)” read 1.29.
`UUGGACUCACUCUCUGUUCCACAAACAUAGAUGUAACCCUCUACCUCUCCUUACCCAACUUAUUACCACCAUACUGUGAUGUUUUGGGUUGUACAUUUUGUUUAAUAAAA`: “RBNS enrichment (R)” 0.521.
`AGCACCUCCCAGAAAGCUGUGAGCGUGGUUUGGUUCAGAACUCCAGCACCCUGUGCCAGGCACUGACUCAAGCAAGAGGAACCUGGCCUGAUCCCUGACUUUGGGGAACC`: “RBNS enrichment (R)” 0.291.
`CUCUGAACUAAAGUAGUAACCUCCCAAAUUGUUUUUUCUAAUAAGCUGAGAUUCCCAUUUCUCUUAAGGAGAAGCCACCCAUGAGAUGUCUUUUCCUUCUCCAUCAUCUU` — result for “RBNS enrichment (R)”: 0.6.
Under “RBNS enrichment (R)”, `UCAAAGCUUUAUUCUGUCUGCCUAAGAGAAUCAACCAAAGGUGAUUCUCCUAAAGAGCAGUGAAGGAAAUGUCAGGUUAGCAGGACCCAAGUUUUGGGUGUGAAAUGUUG` is recorded as 0.34.
`CCUAAGUAAAUUCUGCAUUCUCAUAGUUGUGUCCCAAUUAACCAAAAAGUUGUCUCUAGAGAAAAUACUAUUACAAUCUAAGCAUGAUUCUCUGUGGAGACUAAUUUUUU`: “RBNS enrichment (R)” 5.46.
For `CCUGGCUAUUUGGGCAAUUGAAUCAUCAUGGACUGUAUAAUGCAAUCAGAUUAUUUUGUUUCUAGACAUCCUUGAAUUACACCAAAGAACAUGAAAUUUAGUUGUGGUUA`, “RBNS enrichment (R)” read 0.659.
`UUAAGUUAUCUGAACAAAUACUUUUGAAAAAAAAGUUUGUUGUAUAGUCAAAACAAAUCGGUGCCACCCGGCCGUGACAAAUCCUAGUAGAUUCUGUGCAUGUGGAGCGG`: “RBNS enrichment (R)” 6.71.
For `CCGCCAGGAGCUCAGGAAGGAUACAGCCACUGUCGCAGGGGAAAGUGUUUGCUUCCCGUGGAGCCAAGCGCCCAAGACUCUCCGUAUCCUUCACCCUGACAGUUUAACUU`, “RBNS enrichment (R)” read 0.26.
For `GCUUCCACCAUCCAGGUGCACCACUGAAGUGAGGACACACCGGAGCCAGGCGCCUGCUCAUGUUGAAGUGCGCUGUUCACACCCGCUCCGGAGAGCACCCCAGCAGCAUC`, “RBNS enrichment (R)” read 0.352.
`CUGGACCUCUCACCCUGGGCCUCAGUGAAGGAGUAGGAACCUGCUGCCCACAGCUUCCUACAUCGAACAUGUCCAUGGUCCGAGAUGCCAUUUCAAACAGUUCCAGUGAC` — result for “RBNS enrichment (R)”: 0.205.

Block 3 — technique: aptamer microarray, sandwich; form: DNA with 2'F-ANA; sample: in vitro; tested at: 200 nM; with: Cy3 exosite-II aptamer, 400 nM; direction: higher = stronger binding; oligonucleotide: GGTTGGTGTGGTTGG
Target: Prothrombin, mature alpha-thrombin (F2, Homo sapiens, UniProt P00734)
Setting: whole 15-mer aptamer, many near background
`2'F-ANA at 1 2 5 7 8 14 15`: “mean fluorescence intensity” 71.5 a.u.
`2'F-ANA at 2 4 5 7 10 11 13`: “mean fluorescence intensity” 45.8 a.u.
`2'F-ANA at 1 4 5 6 7 8 9 15`: “mean fluorescence intensity” 67 a.u.
`2'F-ANA at 2 3 5 7 9 11 13 15`: “mean fluorescence intensity” 69.6 a.u.
For `2'F-ANA at 2 5 6 7 8 12 14`, “mean fluorescence intensity” read 51.7 a.u.
Under “mean fluorescence intensity”, `2'F-ANA at 2 5 9 12 13 15` is recorded as 102 a.u.
`2'F-ANA at 2 4 9 10 11 13` — result for “mean fluorescence intensity”: 70.3 a.u.
For `2'F-ANA at 1 3 5 6 8 10 11 12 14 15`, “mean fluorescence intensity” read 75.1 a.u.
`2'F-ANA at 1 5 9 10 14 15`: “mean fluorescence intensity” 48.3 a.u.
`2'F-ANA at 3 4 5 7 8 9 10 13 15`: “mean fluorescence intensity” 104 a.u.
`2'F-ANA at 2 3 4 5 6 9 11 14 15`: “mean fluorescence intensity” 85.4 a.u.
`2'F-ANA at 1 2 3 4 5 6 8 11 12 13 14`: “mean fluorescence intensity” 61.5 a.u.
`2'F-ANA at 2 3 4 5 6 7 9 10 12 13 14` — result for “mean fluorescence intensity”: 48.4 a.u.
Under “mean fluorescence intensity”, `2'F-ANA at 1 4 6 7 8 10 13 15` is recorded as 47.6 a.u.
Under “mean fluorescence intensity”, `2'F-ANA at 2 3 4 5 8 9` is recorded as 103 a.u.
For `2'F-ANA at 2 5 7 10 12 15`, “mean fluorescence intensity” read 48.7 a.u.
Under “mean fluorescence intensity”, `2'F-ANA at 1 3 4 5 10 11 15` is recorded as 49.4 a.u.
`2'F-ANA at 2 3 4 6 8 9 14 15` — result for “mean fluorescence intensity”: 224 a.u.
`2'F-ANA at 3 4 7 13 15` — result for “mean fluorescence intensity”: 646 a.u.
`2'F-ANA at 2 4 5 6 8 10 11 14 15` — result for “mean fluorescence intensity”: 48.9 a.u.
For `2'F-ANA at 2 6 7 8 10 11 12 13`, “mean fluorescence intensity” read 146 a.u.
`2'F-ANA at 1 2 4 5 7 8 13 15`: “mean fluorescence intensity” 52.6 a.u.
For `2'F-ANA at 1 2 3 4 7 10 11 13`, “mean fluorescence intensity” read 63.9 a.u.
`2'F-ANA at 5 6 9 10 13` — result for “mean fluorescence intensity”: 49.8 a.u.
`2'F-ANA at 1 4 7 9 11 12 13 14 15`: “mean fluorescence intensity” 54.6 a.u.

Block 4 — technique: universal PBM; form: double-stranded DNA, one strand shown; sample: in vitro; tested at: 600 nM; direction: higher = stronger binding
Target: Sal-like protein 4, full length isoform A (SALL4, Homo sapiens, UniProt Q9UJQ4, residues 1-1053)
Chain of UniProt Q9UJQ4 (whole entry, looked up): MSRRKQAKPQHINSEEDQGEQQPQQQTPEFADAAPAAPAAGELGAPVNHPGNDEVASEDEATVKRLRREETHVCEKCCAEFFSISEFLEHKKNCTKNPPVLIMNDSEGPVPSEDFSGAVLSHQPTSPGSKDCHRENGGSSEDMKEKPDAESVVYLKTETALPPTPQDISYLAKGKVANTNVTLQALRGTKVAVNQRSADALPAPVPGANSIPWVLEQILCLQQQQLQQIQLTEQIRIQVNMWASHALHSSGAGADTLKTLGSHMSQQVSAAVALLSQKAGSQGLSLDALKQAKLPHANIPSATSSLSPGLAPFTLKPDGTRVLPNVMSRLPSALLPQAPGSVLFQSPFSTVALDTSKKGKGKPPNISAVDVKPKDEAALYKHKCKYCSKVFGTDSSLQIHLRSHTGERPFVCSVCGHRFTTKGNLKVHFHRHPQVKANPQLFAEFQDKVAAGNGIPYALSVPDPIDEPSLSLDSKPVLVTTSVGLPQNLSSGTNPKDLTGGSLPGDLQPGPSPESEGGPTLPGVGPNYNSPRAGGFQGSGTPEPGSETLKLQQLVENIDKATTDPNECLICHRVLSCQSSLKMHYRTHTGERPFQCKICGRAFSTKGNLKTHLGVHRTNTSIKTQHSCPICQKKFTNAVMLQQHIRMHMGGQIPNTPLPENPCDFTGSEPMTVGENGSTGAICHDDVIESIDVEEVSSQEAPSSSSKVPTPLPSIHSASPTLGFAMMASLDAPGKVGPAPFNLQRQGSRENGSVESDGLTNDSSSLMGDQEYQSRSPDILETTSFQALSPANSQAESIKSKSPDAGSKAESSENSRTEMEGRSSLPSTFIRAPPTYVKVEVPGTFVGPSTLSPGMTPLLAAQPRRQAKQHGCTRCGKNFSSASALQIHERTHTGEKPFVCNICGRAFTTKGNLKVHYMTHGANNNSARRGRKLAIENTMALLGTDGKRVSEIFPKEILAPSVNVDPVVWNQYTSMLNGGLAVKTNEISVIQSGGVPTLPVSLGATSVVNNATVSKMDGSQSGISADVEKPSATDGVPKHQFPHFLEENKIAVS
Setting: 8-mer, flanks averaged, mean of replicates
The E-score of `CGTAATTA` is reported as 0.308.
`AAGTGAGG` has an E-score of -0.0417.
The E-score of `GCGTAACA` is reported as 0.0578.
The E-score of `GGACTGTA` is reported as 0.0144.
`TATACGCA` has an E-score of 0.161.
For `ATGCGCTA`, the E-score was 0.0395.
With `CAAACGTA` the E-score was 0.0433.
The E-score of `AATCAAGC` is reported as 0.0868.
With `CCCTGATC` the E-score was -0.226.
`ACCCGGCA` has an E-score of -0.336.
`AAGTGCCC` gave an E-score of -0.264.
The E-score of `GTTAGAAA` is reported as 0.173.
With `AACGTCAC` the E-score was -0.0165.
With `GAAGTGCA` the E-score was 0.0256.
With `AACCCCCC` the E-score was -0.347.
With `CTTTGCCC` the E-score was -0.25.
`ATAACAAA` gave an E-score of 0.346.
For `CTTAGGAC`, the E-score was -0.132.
`AACCCGAC` gave an E-score of -0.0951.
The E-score of `CCCGTCGA` is reported as -0.18.
For `ACGATATC`, the E-score was 0.156.
With `ATCTAGAT` the E-score was 0.107.
`CTATTGAA` has an E-score of 0.198.
`AGTATCTC` gave an E-score of 0.0174.

Some of these lines once more (block 2):
`UUGGACUCACUCUCUGUUCCACAAACAUAGAUGUAACCCUCUACCUCUCCUUACCCAACUUAUUACCACCAUACUGUGAUGUUUUGGGUUGUACAUUUUGUUUAAUAAAA`: “RBNS enrichment (R)” 0.521.
`AGCACCUCCCAGAAAGCUGUGAGCGUGGUUUGGUUCAGAACUCCAGCACCCUGUGCCAGGCACUGACUCAAGCAAGAGGAACCUGGCCUGAUCCCUGACUUUGGGGAACC`: “RBNS enrichment (R)” 0.291.
`CUCUGAACUAAAGUAGUAACCUCCCAAAUUGUUUUUUCUAAUAAGCUGAGAUUCCCAUUUCUCUUAAGGAGAAGCCACCCAUGAGAUGUCUUUUCCUUCUCCAUCAUCUU` — result for “RBNS enrichment (R)”: 0.6.
Under “RBNS enrichment (R)”, `UCAAAGCUUUAUUCUGUCUGCCUAAGAGAAUCAACCAAAGGUGAUUCUCCUAAAGAGCAGUGAAGGAAAUGUCAGGUUAGCAGGACCCAAGUUUUGGGUGUGAAAUGUUG` is recorded as 0.34.
`CCUAAGUAAAUUCUGCAUUCUCAUAGUUGUGUCCCAAUUAACCAAAAAGUUGUCUCUAGAGAAAAUACUAUUACAAUCUAAGCAUGAUUCUCUGUGGAGACUAAUUUUUU`: “RBNS enrichment (R)” 5.46.
For `CCUGGCUAUUUGGGCAAUUGAAUCAUCAUGGACUGUAUAAUGCAAUCAGAUUAUUUUGUUUCUAGACAUCCUUGAAUUACACCAAAGAACAUGAAAUUUAGUUGUGGUUA`, “RBNS enrichment (R)” read 0.659.
